# Experimental data gathered from unrelated publications.
# Each numbered part is a random draw from the data of one study; scales do not carry over between parts.

# Study 1
# Target: Sal-like protein 4, full length isoform A (SALL4, Homo sapiens, UniProt Q9UJQ4, residues 1-1053)
# UniProt Q9UJQ4, sequence (whole entry, looked up): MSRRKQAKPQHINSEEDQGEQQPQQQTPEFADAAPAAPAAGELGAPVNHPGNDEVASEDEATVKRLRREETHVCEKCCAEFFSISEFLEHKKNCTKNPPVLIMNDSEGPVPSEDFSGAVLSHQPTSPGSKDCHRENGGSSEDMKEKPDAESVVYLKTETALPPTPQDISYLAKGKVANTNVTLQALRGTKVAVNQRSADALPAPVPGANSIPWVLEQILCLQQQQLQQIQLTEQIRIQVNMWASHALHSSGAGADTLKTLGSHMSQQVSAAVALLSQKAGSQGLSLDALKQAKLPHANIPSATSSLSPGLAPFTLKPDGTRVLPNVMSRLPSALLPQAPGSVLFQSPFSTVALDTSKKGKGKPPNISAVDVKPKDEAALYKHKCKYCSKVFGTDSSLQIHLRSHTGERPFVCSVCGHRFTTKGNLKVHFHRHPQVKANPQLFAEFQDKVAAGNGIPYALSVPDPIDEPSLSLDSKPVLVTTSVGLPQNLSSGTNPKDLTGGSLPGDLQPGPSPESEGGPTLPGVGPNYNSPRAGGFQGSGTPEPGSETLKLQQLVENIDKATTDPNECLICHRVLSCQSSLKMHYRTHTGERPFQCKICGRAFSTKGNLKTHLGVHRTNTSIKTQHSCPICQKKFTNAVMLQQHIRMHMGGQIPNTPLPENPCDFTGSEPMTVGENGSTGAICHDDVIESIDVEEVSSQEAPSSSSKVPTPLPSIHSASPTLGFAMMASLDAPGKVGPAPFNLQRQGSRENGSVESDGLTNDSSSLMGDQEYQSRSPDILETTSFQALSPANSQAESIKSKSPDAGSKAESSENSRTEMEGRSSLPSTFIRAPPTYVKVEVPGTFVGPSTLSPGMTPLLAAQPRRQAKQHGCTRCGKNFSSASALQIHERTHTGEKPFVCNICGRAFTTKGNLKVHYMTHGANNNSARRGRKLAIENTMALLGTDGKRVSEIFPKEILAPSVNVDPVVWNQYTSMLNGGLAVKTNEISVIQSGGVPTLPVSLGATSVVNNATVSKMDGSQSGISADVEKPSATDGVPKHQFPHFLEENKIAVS
# Method: universal PBM
# Molecule type: double-stranded DNA, one strand shown
# Medium: in vitro
# Concentration: 600 nM
# Notes: 8-mer, flanks averaged, mean of replicates
# Reading: higher = stronger binding
Sequence,E-score
AGTAACCC,-0.01
TAGTAGAA,0.123
AAGTGGTC,-0.0771
CGAAAAAC,0.094
AATGCGGT,-0.169
CAGTCTAG,-0.148
CGCCACTA,-0.188
GCGAGCCA,-0.217
GATTCACC,-0.154
CATCACAG,0.039
TAACTCGA,0.145
AGTCCACT,-0.0474
GAGGAATA,0.235
CTATCTCC,-0.0411

# Study 2
# Target: Interferon regulatory factor 5, full length, phosphomimetic (IRF5, Homo sapiens, UniProt Q13568-2, residues 1-514, S451D/S453D/S456D/S462D)
# Method: protein-binding microarray
# Molecule type: double-stranded DNA, one strand shown
# Medium: in vitro
# Concentration: 940 nM top
# Notes: 60-bp whole probe
# Together with: salmon DNA 0.4 mg/ml
# Relative to: random background probes
# Reading: higher = stronger binding
# Shared flanks, not repeated: GCCTAGCAC … GTCTTGATTCGCTTGACGCTGCTG
Sequence,fitted relative affinity
CCATCTCAGCCTCCCCAAGGGTGCTAG,0.388 z-score
TTAGGACTGGGGTTTCGGTCAGTGCTA,5.3 z-score
ATTTTTTTCATTATTGTTTCGTGCTAG,2.38 z-score
TTAGGTTTCGACTATCGGTTGGTGCTA,9.5 z-score
GACGGTTTCCTACTGCTCACGTGCTAG,0.675 z-score
TCAACTCTCTGGGCTGTGACTGTGCTA,0.154 z-score
GACGATATAGGGACTGGAGACGTGCTA,-0.376 z-score
GACGGTATCGAAACTGGGGACGTGCTA,6.49 z-score
TTAGGTTTCACTTTCCAAAAGTGCTAG,10.2 z-score
TCAGGTTTCCTTATCCTTTAGTGCTAG,1.72 z-score
GTGTATATATAATATATATTCGTGCTA,0.0621 z-score
TTAGATCTCAGACTGAATTAGTGCTAG,-0.0267 z-score
GACGGACTGGTGTATCGGGACGTGCTA,-0.0984 z-score

# Study 3
# Target: Protein C-ets-1 (ETS1, Homo sapiens, UniProt P14921, residues 1-441, full length assumed)
# Method: protein-binding microarray
# Molecule type: double-stranded DNA, one strand shown
# Medium: in vitro
# Concentration: not given
# Notes: k-mer, scored over probes, only values ≥0.25
# Reading: higher = stronger binding
# Residues (chain): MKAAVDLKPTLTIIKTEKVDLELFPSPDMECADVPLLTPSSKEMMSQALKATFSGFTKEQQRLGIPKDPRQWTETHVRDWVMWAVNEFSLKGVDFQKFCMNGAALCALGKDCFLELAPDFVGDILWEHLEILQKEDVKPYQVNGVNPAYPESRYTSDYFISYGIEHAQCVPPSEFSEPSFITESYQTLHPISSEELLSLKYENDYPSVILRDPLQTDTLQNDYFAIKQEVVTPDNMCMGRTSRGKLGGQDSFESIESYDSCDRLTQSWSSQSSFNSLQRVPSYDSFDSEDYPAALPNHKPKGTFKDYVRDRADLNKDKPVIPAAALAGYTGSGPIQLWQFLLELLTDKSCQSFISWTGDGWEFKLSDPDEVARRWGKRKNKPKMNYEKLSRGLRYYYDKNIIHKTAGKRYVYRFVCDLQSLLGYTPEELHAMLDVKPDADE
Sequence,E-score
CCCGGATC,0.295
AATACGGA,0.258
AGGAAGGG,0.4
ATCCGTCG,0.331
GGAAGGGA,0.414
CCACGTCC,0.323
CGACAGGA,0.408
CCGGAAAC,0.491

# Further values, each from its own experiment
Substance,target,test,test system,conditions,scale,endpoint,value
"PhoQ, residues 284 288 289 292 302 303 AQGLTV","PhoP, residues 12 14 15 18 19 TQAIL (Escherichia coli, UniProt P23836)","Sort-seq, measured: YFP reporter",E. coli,"PhoQ-PhoP variant library, together with: 10 µM Mg2+","relative to: high Mg2+ state, higher = stronger signaling",fold induction,3.25

# Some of these lines once more (study 3):
Sequence,E-score
CCGGAAAC,0.491
ATCCGTCG,0.331
